# Measured values collected from several papers.
# Parts stem from different laboratories: compare values within a part only. “And” joins repeats or separate records; there may be more than shown.
# Sequence of UniProt P0C1S8 (whole entry, looked up): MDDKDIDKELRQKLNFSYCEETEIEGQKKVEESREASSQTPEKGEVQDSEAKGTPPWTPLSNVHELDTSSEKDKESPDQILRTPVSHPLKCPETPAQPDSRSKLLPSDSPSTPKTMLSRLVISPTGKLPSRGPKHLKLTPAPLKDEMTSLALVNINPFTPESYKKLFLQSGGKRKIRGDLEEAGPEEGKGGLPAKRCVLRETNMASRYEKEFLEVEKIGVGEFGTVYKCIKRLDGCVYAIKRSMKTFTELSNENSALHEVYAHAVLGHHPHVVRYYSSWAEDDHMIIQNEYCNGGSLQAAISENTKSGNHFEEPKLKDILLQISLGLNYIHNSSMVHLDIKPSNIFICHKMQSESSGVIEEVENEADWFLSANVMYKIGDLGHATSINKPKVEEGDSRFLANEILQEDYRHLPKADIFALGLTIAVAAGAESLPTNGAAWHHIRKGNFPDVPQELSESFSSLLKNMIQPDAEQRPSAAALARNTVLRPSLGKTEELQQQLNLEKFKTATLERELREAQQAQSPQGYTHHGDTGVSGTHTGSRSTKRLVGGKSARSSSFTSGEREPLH
# Sequence of UniProt O14730 (whole entry, looked up): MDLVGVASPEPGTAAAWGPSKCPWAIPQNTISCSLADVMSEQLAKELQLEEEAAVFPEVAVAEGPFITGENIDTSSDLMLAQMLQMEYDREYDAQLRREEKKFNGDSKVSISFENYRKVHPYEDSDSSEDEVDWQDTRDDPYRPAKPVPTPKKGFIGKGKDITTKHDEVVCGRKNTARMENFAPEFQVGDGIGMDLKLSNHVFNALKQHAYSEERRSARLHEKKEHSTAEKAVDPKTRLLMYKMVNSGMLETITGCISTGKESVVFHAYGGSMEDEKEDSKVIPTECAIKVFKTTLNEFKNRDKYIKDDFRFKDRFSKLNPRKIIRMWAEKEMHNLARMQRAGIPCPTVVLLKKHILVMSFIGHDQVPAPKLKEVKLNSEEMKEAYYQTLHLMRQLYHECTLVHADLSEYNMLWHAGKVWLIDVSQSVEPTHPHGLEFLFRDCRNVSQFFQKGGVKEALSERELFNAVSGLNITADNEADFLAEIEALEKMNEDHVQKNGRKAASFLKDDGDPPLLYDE
# Sequence of UniProt Q96GD4 (whole entry, looked up): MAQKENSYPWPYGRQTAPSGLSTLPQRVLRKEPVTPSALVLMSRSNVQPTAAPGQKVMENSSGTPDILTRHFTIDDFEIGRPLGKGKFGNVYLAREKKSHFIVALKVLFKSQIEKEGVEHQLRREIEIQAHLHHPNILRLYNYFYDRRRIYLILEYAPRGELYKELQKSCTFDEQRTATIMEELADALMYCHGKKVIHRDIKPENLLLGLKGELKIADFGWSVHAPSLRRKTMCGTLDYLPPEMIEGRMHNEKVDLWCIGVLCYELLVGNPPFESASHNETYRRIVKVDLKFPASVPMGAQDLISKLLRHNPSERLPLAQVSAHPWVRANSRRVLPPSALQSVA
# Sequence of UniProt Q15303 (whole entry, looked up): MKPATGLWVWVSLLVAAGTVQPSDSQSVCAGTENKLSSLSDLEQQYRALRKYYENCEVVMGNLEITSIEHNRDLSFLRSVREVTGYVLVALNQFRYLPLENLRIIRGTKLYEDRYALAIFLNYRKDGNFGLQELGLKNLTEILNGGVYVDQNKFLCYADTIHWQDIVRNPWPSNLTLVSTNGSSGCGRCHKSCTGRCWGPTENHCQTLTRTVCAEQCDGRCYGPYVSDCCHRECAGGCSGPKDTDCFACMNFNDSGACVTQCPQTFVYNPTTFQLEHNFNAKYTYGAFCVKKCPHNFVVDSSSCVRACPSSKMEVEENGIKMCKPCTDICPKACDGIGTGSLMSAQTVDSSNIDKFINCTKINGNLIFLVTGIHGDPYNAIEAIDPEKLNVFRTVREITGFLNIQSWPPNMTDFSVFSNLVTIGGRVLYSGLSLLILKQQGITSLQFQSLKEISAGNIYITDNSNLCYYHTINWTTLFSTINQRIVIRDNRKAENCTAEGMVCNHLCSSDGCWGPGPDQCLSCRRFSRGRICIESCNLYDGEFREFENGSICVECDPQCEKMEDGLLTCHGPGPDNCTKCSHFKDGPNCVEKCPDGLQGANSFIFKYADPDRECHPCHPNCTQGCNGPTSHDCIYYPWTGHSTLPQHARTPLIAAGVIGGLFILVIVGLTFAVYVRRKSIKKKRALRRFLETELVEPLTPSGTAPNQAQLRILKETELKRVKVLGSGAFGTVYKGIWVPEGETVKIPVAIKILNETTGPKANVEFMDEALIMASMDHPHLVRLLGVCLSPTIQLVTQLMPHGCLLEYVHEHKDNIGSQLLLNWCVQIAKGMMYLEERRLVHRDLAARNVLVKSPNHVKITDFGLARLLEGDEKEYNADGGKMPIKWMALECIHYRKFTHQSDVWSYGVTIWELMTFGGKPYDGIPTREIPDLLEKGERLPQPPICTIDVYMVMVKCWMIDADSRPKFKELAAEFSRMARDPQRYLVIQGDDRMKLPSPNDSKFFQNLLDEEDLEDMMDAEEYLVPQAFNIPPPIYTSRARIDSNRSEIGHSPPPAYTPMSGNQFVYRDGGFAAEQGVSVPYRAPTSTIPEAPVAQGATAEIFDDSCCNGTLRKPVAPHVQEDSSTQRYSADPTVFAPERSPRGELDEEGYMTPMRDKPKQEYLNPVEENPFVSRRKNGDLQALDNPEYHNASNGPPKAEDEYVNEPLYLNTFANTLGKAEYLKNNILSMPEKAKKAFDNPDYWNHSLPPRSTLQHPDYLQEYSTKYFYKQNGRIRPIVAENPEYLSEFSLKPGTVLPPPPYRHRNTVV
# Sequence of UniProt P17948 (whole entry, looked up): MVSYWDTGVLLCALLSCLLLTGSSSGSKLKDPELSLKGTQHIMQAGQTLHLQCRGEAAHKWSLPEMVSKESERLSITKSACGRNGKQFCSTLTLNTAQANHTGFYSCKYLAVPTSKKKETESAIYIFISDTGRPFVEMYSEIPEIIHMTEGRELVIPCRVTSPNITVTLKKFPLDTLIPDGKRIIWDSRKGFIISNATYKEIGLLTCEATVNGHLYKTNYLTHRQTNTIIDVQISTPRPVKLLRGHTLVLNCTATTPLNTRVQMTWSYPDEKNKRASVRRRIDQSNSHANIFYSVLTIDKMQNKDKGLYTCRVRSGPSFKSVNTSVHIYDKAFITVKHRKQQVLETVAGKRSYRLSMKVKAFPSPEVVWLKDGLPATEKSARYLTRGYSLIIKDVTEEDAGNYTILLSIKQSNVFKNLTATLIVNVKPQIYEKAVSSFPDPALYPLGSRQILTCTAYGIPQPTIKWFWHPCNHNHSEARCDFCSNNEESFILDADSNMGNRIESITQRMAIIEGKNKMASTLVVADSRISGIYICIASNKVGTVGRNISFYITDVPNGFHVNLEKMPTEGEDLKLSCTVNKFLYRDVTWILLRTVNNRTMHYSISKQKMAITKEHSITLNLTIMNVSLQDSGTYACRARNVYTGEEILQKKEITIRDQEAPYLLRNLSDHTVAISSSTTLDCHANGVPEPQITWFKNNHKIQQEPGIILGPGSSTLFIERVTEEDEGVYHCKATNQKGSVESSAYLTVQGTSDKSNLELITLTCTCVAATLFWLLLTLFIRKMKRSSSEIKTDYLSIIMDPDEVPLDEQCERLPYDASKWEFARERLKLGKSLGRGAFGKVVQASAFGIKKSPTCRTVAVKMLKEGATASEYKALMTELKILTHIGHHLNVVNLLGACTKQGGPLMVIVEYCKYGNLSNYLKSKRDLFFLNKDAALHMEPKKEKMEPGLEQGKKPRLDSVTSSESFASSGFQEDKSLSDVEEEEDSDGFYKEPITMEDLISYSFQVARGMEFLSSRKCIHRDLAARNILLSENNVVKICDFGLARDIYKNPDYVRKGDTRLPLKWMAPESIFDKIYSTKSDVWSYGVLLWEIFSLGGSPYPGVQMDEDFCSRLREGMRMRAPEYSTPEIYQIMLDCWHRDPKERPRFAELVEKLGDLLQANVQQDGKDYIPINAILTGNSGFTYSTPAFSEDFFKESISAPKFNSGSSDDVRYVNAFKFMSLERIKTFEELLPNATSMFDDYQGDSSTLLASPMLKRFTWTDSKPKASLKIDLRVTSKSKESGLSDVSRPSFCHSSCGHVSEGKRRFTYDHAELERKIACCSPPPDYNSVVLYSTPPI

# Set 1 — cell line: 451Lu
Structure (SMILES),IC50
O=C1NCCN1CCN1CCC(c2cn(-c3ccc(F)cc3)c3ccc(Cl)cc23)CC1,5.9 µM
CNCCCN1c2ccccc2CCc2ccccc21,64.1 µM
OCCOCCN1CCN(C(c2ccccc2)c2ccc(Cl)cc2)CC1 (centres unmarked),93.3 µM
CNCCCC1c2ccccc2C=Cc2ccccc21,50.8 µM
OC1(c2ccc(Cl)c(C(F)(F)F)c2)CCN(CCCC(c2ccc(F)cc2)c2ccc(F)cc2)CC1,14.6 µM

# Set 2 — effect on: cell-free assay; method: competition with immobilised ligand; concentration: 1 µM
# Compound: O=C(NS(=O)(=O)c1ccc(NCC2CCOCC2)c([N+](=O)[O-])c1)c1ccc(N2CCN(Cc3ccc(C(F)(F)F)cc3-c3ccc(Cl)cc3)CC2)cc1Oc1cnc2[nH]ccc2c1
target,remaining binding
"WEE2 (Homo sapiens, UniProt P0C1S8)",100%
"RIOK3 (Homo sapiens, UniProt O14730)",98%
"ERBB4 (Homo sapiens, UniProt Q15303)",100%
"Aurora kinase B (AURKB, Homo sapiens, UniProt Q96GD4)",100%
"FLT1 (Homo sapiens, UniProt P17948)",100%
"EGFR (Homo sapiens, UniProt P00533, L858R/T790M)",75%

# Set 3 — route: subcutaneous; dose: 0.3 mg/kg/day DON equivalent; time: 5 days; direction: higher = more metabolite
# Compound: CC(=O)N[C@@H](Cc1c[nH]c2ccccc12)C(=O)N[C@@H](CCC(=O)C=[N+]=[N-])C(=O)OC(C)C
method,item,cells,host,sample,metabolite peak area
UPLC-MS/MS,"2',3'-cyclic CMP",,C57BL/6 CES1-/- mice,EL4 tumour,165000 a.u. and 665000 a.u. and 322000 a.u. and 630000 a.u. and 423000 a.u. and 676000 a.u.
UPLC-MS/MS,dGMP 3',,C57BL/6 CES1-/- mice,EL4 tumour,381000 a.u. and 81800 a.u. and 675000 a.u. and 966000 a.u. and 269000 a.u. and 394000 a.u.
UPLC-MS/MS,dAMP,,C57BL/6 CES1-/- mice,EL4 tumour,124000 a.u. and 157000 a.u. and 122000 a.u. and 26800 a.u. and 73900 a.u. and 83900 a.u.
UPLC-MS/MS metabolomics,galactonate,EL4,"C57BL/6 CES1-/- mice, EL4 tumour",tumour,6.66e+07 a.u. and 3.57e+07 a.u. and 5.28e+07 a.u. and 4.39e+07 a.u. and 5.21e+07 a.u. and 8.04e+07 a.u.
UPLC-MS/MS metabolomics,"fructose 1,6-bisphosphate",EL4,"C57BL/6 CES1-/- mice, EL4 tumour",tumour,1.24e+07 a.u. and 1.19e+07 a.u. and 1.02e+07 a.u. and 7.47e+06 a.u. and 9.45e+06 a.u. and 6.32e+06 a.u.
UPLC-MS/MS metabolomics,dCMP,EL4,"C57BL/6 CES1-/- mice, EL4 tumour",tumour,3.9e+06 a.u. and 3.38e+06 a.u. and 4.71e+06 a.u. and 6.34e+06 a.u. and 3.96e+06 a.u. and 3.69e+06 a.u.
UPLC-MS/MS,tricarballylate,,C57BL/6 CES1-/- mice,EL4 tumour,6.45e+07 a.u. and 4e+07 a.u. and 2.2e+07 a.u. and 4.32e+07 a.u. and 1.61e+07 a.u. and 1.21e+08 a.u.
UPLC-MS/MS metabolomics,erythritol,EL4,"C57BL/6 CES1-/- mice, EL4 tumour",tumour,576000 a.u. and 425000 a.u. and 202000 a.u. and 608000 a.u. and 565000 a.u. and 157000 a.u.

# Set 4 — cell line: HaCaT; concentration: 100 µM; time: 36 h
SMILES,viability
CN1C(=O)OC(C)(C)C1=O,96.1%
Cc1cccn2c(=O)c(-c3nnn[nH]3)cnc12,70.3%
CC(C)COc1ccc(CNC(=O)N(Cc2ccc(F)cc2)C2CCN(C)CC2)cc1,5.4%
NS(=O)(=O)c1cc(C2(O)NC(=O)c3ccccc32)ccc1Cl (centres unmarked),61%
Cc1ccc([C@@H]2O[C@H](CO)[C@@H](O)[C@H](O)[C@H]2O)cc1Cc1ccc(-c2ccc(F)cc2)s1,6.2%
CSc1nc2cc(Cl)c(Oc3cccc(Cl)c3Cl)cc2[nH]1,12.5%
Cc1cccc(Nc2ccccc2C(=O)O)c1C,99.4%

# Set 5 — effect on: enzyme activity; mode: inhibitor; concentration: 0.5 µM; baseline: control
# Target: Epidermal growth factor receptor (EGFR, Homo sapiens, UniProt P00533)
Compound,remaining activity [%]
CO[C@H]1C[C@@H]2CC[C@@H](C)[C@@](O)(O2)C(=O)C(=O)N2CCCC[C@H]2C(=O)O[C@H]([C@H](C)C[C@@H]2CC[C@@H](O)[C@H](OC)C2)CC(=O)[C@H](C)/C=C(\C)[C@@H](O)[C@@H](OC)C(=O)[C@H](C)C[C@H](C)/C=C/C=C/C=C/1C,93.3
CC(C)[C@H](CO)Nc1nc(Nc2cc(N)cc(Cl)c2)c2ncn(C(C)C)c2n1,93.9
Cc1nc(-c2ccccc2)c(-c2ccncc2)o1,89.4
Cn1sc(=O)n(Cc2ccccc2)c1=O,105
COc1cc2nccc(Oc3ccc(NC(=S)NC(=O)c4ccccc4C)cc3)c2cc1OC,89.7
COc1cc2ncnc(Nc3ccc(Oc4ccccc4)cc3)c2cc1OC,31.6
O=c1c2ccccc2[nH]c(=S)n1CCN1CCC(=C(c2ccc(F)cc2)c2ccc(F)cc2)CC1,101
O=C(CCCc1ccc(-c2ccccc2F)cc1)Nc1ccc(O)cc1,87.9
OCC(O)CCON=C1C(c2c(O)[nH]c3ccccc23)=Nc2ccccc21 (centres unmarked),88.1
COc1ccc(C(=O)Nc2sc3c(c2C(N)=O)CCCC3)cc1OC,99.9
O=C(O)c1ccc2c3c1cccc3c(=O)n1c3ccccc3nc21,96.5
Nc1ccc2ncnc(NCCc3ccc(Oc4ccccc4)cc3)c2c1,112
Nc1[nH]nc2nc3ccccc3nc12,96.4
Cc1cccc(-c2[nH]c(C(C)(C)C)nc2-c2ccc3c(c2)OCO3)n1,96.4
COc1ccc(OC)c2c(=S)c3ccccc3[nH]c12,91
CN(C)c1ccc(C=C2C(=O)Nc3ccccc32)cc1,92.1
O=C1NC(=O)C(c2cn(CCCO)c3ncccc23)=C1c1cnccn1,95.9
O=C1NC(=O)C(c2cn(CCCn3ccnc3)c3ccccc23)=C1Nc1ccccc1,95.1
CCOC(=O)c1c(C)[nH]c(/C=C2\C(=O)Nc3ccccc32)c1C,92.2
NCCNc1ncc(C(N)=O)c(Nc2cccc(C(F)(F)F)c2)n1,87.9
Nc1ncnc2n[nH]c(Nc3ccc(F)cc3)c12,100

# For quick reference, copied from above (set 5):
Compound,remaining activity [%]
Cc1cccc(-c2[nH]c(C(C)(C)C)nc2-c2ccc3c(c2)OCO3)n1,96.4
COc1ccc(OC)c2c(=S)c3ccccc3[nH]c12,91
CN(C)c1ccc(C=C2C(=O)Nc3ccccc32)cc1,92.1
O=C1NC(=O)C(c2cn(CCCO)c3ncccc23)=C1c1cnccn1,95.9
O=C1NC(=O)C(c2cn(CCCn3ccnc3)c3ccccc23)=C1Nc1ccccc1,95.1
CCOC(=O)c1c(C)[nH]c(/C=C2\C(=O)Nc3ccccc32)c1C,92.2
NCCNc1ncc(C(N)=O)c(Nc2cccc(C(F)(F)F)c2)n1,87.9
